Measured values collected from several papers.
Parts stem from different laboratories: compare values within a part only. Substitutions count along the parent as printed.

Study 1
Target: RNA binding protein fox-1 homolog 2, RRM domain, GST-SBP tag (RBFOX2, Homo sapiens, UniProt O43251-10, residues 100-194)
Method: RNA Bind-n-Seq
Form: RNA
Medium: in vitro
Concentration: 365 nM
Notes: natural RNA segment, single round, ends assumed
Baseline: no-protein control
Reading: higher = stronger binding
Endpoint: RBNS enrichment (R)
Constant ends, left off below: GGGAGUUCUACAGUCCGACGAUC … UGGAAUUCUCGGGUGCCAA
Residues (chain): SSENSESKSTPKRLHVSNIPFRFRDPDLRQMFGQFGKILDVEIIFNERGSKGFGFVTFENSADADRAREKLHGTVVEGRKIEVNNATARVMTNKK
GGAAAGACAUGCCCAAGAGGAAGGAAGUACUGACCAUCGGCUGCCUGUGAGCAGCUUAGCAAGGAGCCCUUGCUCCCUGGGAAAGGCGGUGAACUUGAGUCUAAAGAUGC: 0.511
GCUGUGAUGAAAGAGAAAAAUGCAGAGUGCCAGUCACUGUGGUGUCUGGGGGAAAUCACCGGGGUUCAGGGGAGGGGAUUUCCCCGUGAAAUAAACUCAUCAUGGACACU: 0.965
CACCCCGGUAUGAAUGUGUUUCCUCCACAUUGUAUAUCCUUCCACCCUCUGGCUGCCUAGAUCAGUAAAUAAAAUUGAUGUAAUAUAAUUUAUAAGUAACACUGUUGAAA: 0.607
GUGAAGGCAUCAACUUAUGUAAAAACUCAGAAGGAAGGCUCCUCUGAUAAAAACACAGCUCCUUUAUUAUGCUGCUUUUCUUGUUCACUUUACACACUAAGUAAACACUU: 0.337
AUCCUCCCAUGAAAAUCAGUUCGCCUGGCCUCCAAGUCGUGAGGAAAUGGGUAUGCAAGGCUGAGAUUUCUACAGCAAUAAAGGAGACACACACUGGGCCAGAGAGGCCU: 0.544
AAGUGCUGGGAUUACAGGAGUGAGCCACUGUGCCUGGCCUAUCCCACUUGGUUUUUGACUGAAGGGGAAGUGUAGAAAUAUAUUGAUUUGUGAUUUCUGGUGUCACCUGU: 1.34
UAUGAUCCUAUUAAAAUAAUAUAGGGUAAAUACCCUACCUCUUAGAAAGGGCAAAAAUGCAAAGAAGCUUUCUUUAAAACUAAAAGGGUUUUUUGGGGGGGGAGUUGGCG: 0.57
CUGAGGAAACAAGAAAAGAAGAAGAGGCACAUGAAGUGUGCUUUUGGGAAUAGAAUUUAAAAUUGGAUUAAGAUUUUAUUUCCAGUUUUUUUUAUUUAUUUAUUUUUUUU: 0.635
GAGAAGAAAGUUACUGACUUGUGACCUAUGCUUGGCCCUGUGCCUAGUCACCUGUCACCAGGGAUUCUACUACAGUCUGCGCGCCACAGAUAGUUGCUCACACACCAUUG: 0.158
UUCCUUCUAGUAUCCGAAGAAUCUGAGCCUUCAAUGUUAAAAUUUUUCUUAAUUAAAAUGUGCUUUAUUUCACAAAAUCAACAAAUCAAAAAGAAUAUUCAUGGCAACGU: 0.446
AUGAGUGACCAUCCGUCCGAAUGUUCUCCCACUUCCUUCAGCCUCUCCUCGGCUUCUUGCACUGAGCUGGCCUCACGUGUUGACUGAGGGAGCCCCUGAGCCCCAACCUU: 0.247
UUAACUCAUUAGUAUCAUAAACGUCAAGGAUUGAUUGGACCAGGCAAGAGCCAUGUUUUUGAGAAGGUUCUGGAUCUCUGACUCCAUCCUGACUGUUUAGUAAGAGCAUG: 1.03

Study 2
Target: Phosphate system positive regulatory protein PHO4, full length, GST-tagged (PHO4, Saccharomyces cerevisiae, UniProt P07270, residues 1-312)
Method: competition protein-binding microarray
Form: double-stranded DNA, one strand shown
Medium: in vitro
Concentration: 2 µM
Notes: whole 60-bp probe, lowest competitor level
Added: Cbf1 competitor, 0.05 µM
Reading: higher = stronger binding
Endpoint: fluorescence intensity
Constant ends, left off below: … GTCTTGATTCGCTTGACGCTGCTG
Target sequence (chain): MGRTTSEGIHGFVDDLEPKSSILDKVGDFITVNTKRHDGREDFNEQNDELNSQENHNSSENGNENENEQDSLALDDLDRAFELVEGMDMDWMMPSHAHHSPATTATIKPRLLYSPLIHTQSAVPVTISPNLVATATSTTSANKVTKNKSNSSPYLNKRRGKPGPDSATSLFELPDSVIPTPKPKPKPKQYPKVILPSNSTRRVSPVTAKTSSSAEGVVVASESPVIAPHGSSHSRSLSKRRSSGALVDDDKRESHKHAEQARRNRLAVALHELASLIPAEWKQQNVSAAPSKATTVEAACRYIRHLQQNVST
AACTGGCATAATCGAGTTGTGACGAACAAACTTAAC: 3790 a.u.
TGCGCAACAACTTGACCGGTGGGTGTATGTCTAGAA: 4560 a.u.
TGCGCAACAACTTTTCACGTGGGCTTATGTCTAGAA: 14700 a.u.
ATGCAAATGCCTCACCACGTGCAAATGTGAAAAGAG: 19100 a.u.
ACTCTAAGGTTATAGCATGTGCTATTGATAACCCAG: 11600 a.u.
CGTCCTAGTGATTGTCACGTGTTTTCCATGAGGAAG: 15800 a.u.
TGCGCGTTTTTCTGGGACGTGCTAACAAACGAGAAA: 7810 a.u.
CTTTCCCGATCTTGGGGCGTGGGTGTAGCACATTTG: 11000 a.u.
AAATCTTTCCTCAACCGCGTGTTTTCGTCTTTACCA: 10200 a.u.
TTACTTCAAAATCACCACGTGTTGAAGAGACTTCAA: 18700 a.u.
CCGTTCACCACTTTGCATGTGCTCTCAAGTACGGCC: 10700 a.u.
CATACCCAACCTTGCTGAGTGGGTGAAGATATTTGT: 4380 a.u.
TGCGCAACAACTTGATTAGTGGGTGTATGTCTAGAA: 3980 a.u.
CTAACGAAGGTTTGTGAAGTGGGTGACAAGCCAAGT: 3610 a.u.
AAAGCGGTAATTTTTCACGTGTAATCAAATATCTAT: 12200 a.u.
CTAACGAAGGTTTGTCACCTTACTTACAAGCCAAGT: 3310 a.u.

Study 3
Target: Ras GTPase-activating protein-binding protein 1, full length (G3BP1, Homo sapiens, UniProt Q13283)
Sequence of UniProt Q13283 (whole entry, looked up): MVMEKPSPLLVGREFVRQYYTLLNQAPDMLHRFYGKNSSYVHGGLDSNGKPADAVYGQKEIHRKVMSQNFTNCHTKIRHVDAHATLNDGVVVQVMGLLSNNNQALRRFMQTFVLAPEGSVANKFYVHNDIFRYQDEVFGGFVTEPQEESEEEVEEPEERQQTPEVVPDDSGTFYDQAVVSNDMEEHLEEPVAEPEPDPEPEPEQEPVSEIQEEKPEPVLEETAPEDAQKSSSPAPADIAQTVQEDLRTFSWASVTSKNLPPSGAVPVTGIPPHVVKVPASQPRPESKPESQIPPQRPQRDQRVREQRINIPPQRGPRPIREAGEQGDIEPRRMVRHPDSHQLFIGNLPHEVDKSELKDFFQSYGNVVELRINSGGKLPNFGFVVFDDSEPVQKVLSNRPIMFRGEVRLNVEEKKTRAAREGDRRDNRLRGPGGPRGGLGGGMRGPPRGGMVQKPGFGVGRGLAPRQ
Method: RNA Bind-n-Seq
Form: RNA
Medium: in vitro
Concentration: 200 nM
Notes: whole 134-nt RNA, ends assumed
Added: 150 mM LiCl
Baseline: input library
Reading: higher = stronger binding
Endpoint: log2 enrichment
Each molecule: 7-deaza-guanosine replaces G
Constant ends, left off below: GGGAGUUCUACAGUCCGACGAUC … UGGAAUUCUCGGGUGUCAAGG
UCAAGUCCUGUGCUACACAUCGUAUGUACCGAAUCGGCCCGGCCCGGGCCCGGGGAAAGUAUUAUGUUACGCCGUUCGGAUCUGCACUUC: -0.65
ACCAUGCAGGUGGGCAUCUUUGGGAAGUGGGGCAAGGGGGAGAUAGGGAGGGGGGUAACACUUUGGGAACAGGUGGUCCCAGGUCGUUUC: 0.425
UCAAGUCCUGUGCUACACAUCGUAUGUACCGAAUCGGUGGUUUGGUUUUUUUGGAAAGUAUUAUGUUACGCCGUUCGGAUCUGCACUUCC: -0.0281
GUCCUGUGCUACACAUCGUAUGUACCGAAUCAAAUUUUUAAAUUUUUAAAUUUUUAAAAAAGUAUUAUGUUACGCCGUUCGGAUCUGCAC: -2.87
UGUGCUACACAUCGUAUGUACCGAAUCGGGGAAAAAAAGGGGAAAAAGGGGAAAAAAAGGGGAAAGUAUUAUGUUACGCCGUUCGGAUCU: 0.716
CUGUGCUACACAUCGUAUGUACCGAAUCGGGGAAAAAAAGGGGAAAAAGGGGAAAAAGGGGAAAGUAUUAUGUUACGCCGUUCGGAUCUG: 0.471
AAGUCCUGUGCUACACAUCGUAUGUACCGAAUCGGGAAAGGGAGGGAAAAAAAGGGAAAGUAUUAUGUUACGCCGUUCGGAUCUGCACUU: 0.484
AAGUCCUGUGCUACACAUCGUAUGUACCGAAUCGGGUUUGGGUGGGAAAAAAAGGGAAAGUAUUAUGUUACGCCGUUCGGAUCUGCACUU: 0.129
GCAGGAAGUAAAAACAAAUUGAAAUGCUUCGGAUAGUGGCAGGGGUGGGGGUUGCUAAGGAAAGGGUGGGAUGGGAGUGGGUAAAGAGUU: 0.174
GUCCUGUGCUACACAUCGUAUGUACCGAAUCGGGGUUUUUGGGGUUUUUGGUUUUUGGAAAGUAUUAUGUUACGCCGUUCGGAUCUGCAC: -0.494
GCAGGAAGUAAAAACAAAUGGAAAUGCUUCUGAUAGUGGCAGGGGUGGGGGUUGCUAAGGAAAGGGUGGGAUGGGAGUGGGUAAAGAGUU: 0.324

Study 4
Target: Sal-like protein 4, full length isoform B (SALL4, Homo sapiens, UniProt Q9UJQ4-2, residues 1-616)
Method: universal PBM
Form: double-stranded DNA, one strand shown
Medium: in vitro
Concentration: not given
Notes: 8-mer, flanks averaged, mean of replicates
Reading: higher = stronger binding
Endpoint: E-score
AACGACAC: -0.029
CACCCGGC: -0.393
GGAGACAC: -0.0884
AGCTGTTC: -0.152
GATCAGAA: -0.0231
ATGACAGG: -0.0355
GTGCGCAC: -0.108
CCTTTCAA: 0.107
CTGTCCAA: -0.0731
AACGTGTC: -0.0394
CCCGACGA: -0.117
CCCGTCCA: -0.118
ACAGATCA: -0.0742
GAACAAAC: 0.119
ATTGTTCG: 0.319
ATAATCCG: 0.242
AGATCAGA: -0.0584
ATGGGGTG: -0.14
GGAGCCAC: -0.307
CGACCACC: -0.29
AGTCTGTA: 0.0634
CGCTGAAG: -0.191
ACTTCCTA: 0.107
CTTGTTGA: -0.0399
AAATAGCG: 0.19

Study 5
Target: ABI1, truncated, D143A, DHFR fusion (Arabidopsis thaliana)
Method: DHFR PCA, deep sequencing
Medium: yeast
Notes: methotrexate growth selection, single substitutions
Added: (+)-ABA 2500 µM
Baseline: wild-type fitted maximum
Reading: higher = stronger binding
Endpoint: relative binding score
Starting sequence: PYL1, truncated, DHFR fusion (Arabidopsis thaliana); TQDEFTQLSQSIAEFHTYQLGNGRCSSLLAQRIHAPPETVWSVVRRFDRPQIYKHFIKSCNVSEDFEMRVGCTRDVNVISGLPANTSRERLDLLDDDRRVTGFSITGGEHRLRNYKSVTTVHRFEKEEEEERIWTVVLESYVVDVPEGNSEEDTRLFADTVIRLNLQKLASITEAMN
R49W: 81.2%
R69Q: 97.7%
S117E: 57%
N85I: 97.6%
I33D: -9.64%
A35E: 75.9%
E89A: 23.1%
Q51M: 105%
H34W: 98.1%
H122L: 86.4%
E152Y: 91.3%
W134A: 100%
E130R: 105%
E174I: 91%
L169K: -4%
D96N: 97%
E67S: 95%
Q167Y: 87.3%
I79N: 93.2%
R69G: 92.8%
I105T: 87.4%
R113F: 105%
L20D: 95%
V43F: 88.3%
Q7V: 104%
